Experimental data from different studies.
Each line is one published result; not all experiments were run side by side. Several values in a cell are separate wells, animals, samples, runs or records. Numbers after ± are the reported error.
USP49 ZnF-UBD domain: Ubiquitin carboxyl-terminal hydrolase 49, ZnF-UBD domain (USP49, Homo sapiens, UniProt Q70CQ1)
Sequence of UniProt Q70CQ1 (whole entry, looked up): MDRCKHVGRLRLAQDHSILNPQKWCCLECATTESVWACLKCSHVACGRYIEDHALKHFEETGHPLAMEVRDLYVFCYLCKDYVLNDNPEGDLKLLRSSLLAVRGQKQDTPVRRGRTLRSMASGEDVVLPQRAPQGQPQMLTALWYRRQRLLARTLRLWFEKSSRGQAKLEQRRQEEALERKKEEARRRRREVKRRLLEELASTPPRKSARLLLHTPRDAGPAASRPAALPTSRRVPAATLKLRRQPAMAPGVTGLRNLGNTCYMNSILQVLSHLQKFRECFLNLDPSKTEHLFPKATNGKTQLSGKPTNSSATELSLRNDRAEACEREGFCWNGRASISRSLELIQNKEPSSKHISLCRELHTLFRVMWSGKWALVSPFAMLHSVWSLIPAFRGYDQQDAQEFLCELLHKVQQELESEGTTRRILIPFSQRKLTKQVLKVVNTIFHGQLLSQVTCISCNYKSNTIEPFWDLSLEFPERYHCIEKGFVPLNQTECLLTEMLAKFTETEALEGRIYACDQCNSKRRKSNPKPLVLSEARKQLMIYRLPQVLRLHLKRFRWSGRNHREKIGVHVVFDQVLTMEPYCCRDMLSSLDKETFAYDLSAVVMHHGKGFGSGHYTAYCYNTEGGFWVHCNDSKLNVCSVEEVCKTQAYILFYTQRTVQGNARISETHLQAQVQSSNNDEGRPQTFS
ABCG2: Broad substrate specificity ATP-binding cassette transporter ABCG2 (ABCG2, Homo sapiens, UniProt Q9UNQ0)
Sequence of UniProt Q9UNQ0 (whole entry, looked up): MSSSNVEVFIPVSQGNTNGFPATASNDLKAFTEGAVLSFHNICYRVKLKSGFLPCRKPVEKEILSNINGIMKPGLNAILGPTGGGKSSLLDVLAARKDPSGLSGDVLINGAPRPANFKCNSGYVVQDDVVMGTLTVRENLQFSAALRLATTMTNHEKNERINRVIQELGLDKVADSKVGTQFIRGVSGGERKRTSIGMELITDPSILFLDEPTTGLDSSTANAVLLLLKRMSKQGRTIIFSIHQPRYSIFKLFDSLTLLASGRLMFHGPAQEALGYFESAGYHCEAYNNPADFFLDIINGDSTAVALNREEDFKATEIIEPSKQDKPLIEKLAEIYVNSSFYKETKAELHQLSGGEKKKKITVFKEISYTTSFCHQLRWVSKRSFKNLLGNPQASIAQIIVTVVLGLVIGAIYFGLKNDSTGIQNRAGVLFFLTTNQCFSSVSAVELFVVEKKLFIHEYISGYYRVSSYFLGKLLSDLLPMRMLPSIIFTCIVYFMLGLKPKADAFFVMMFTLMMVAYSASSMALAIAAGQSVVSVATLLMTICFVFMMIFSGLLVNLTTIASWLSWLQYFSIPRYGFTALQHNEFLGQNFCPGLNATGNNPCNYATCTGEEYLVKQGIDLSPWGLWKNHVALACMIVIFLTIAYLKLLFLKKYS
Sequence of UniProt P08684 (whole entry, looked up): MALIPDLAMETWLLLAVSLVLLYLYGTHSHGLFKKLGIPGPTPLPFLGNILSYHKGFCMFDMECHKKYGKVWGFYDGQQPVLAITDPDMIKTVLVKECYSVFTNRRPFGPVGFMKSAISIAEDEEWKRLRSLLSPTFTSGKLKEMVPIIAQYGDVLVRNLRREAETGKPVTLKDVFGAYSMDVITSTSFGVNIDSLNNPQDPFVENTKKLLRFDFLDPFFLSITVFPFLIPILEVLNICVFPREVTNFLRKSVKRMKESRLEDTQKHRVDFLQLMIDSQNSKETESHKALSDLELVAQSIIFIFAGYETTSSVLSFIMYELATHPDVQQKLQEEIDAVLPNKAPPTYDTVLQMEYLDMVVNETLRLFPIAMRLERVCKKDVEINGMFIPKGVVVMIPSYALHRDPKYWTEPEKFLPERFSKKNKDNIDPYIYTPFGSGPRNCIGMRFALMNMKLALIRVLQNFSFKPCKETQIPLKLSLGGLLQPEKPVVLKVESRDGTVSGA

`Cc1cc(Nc2ccc(S(F)(F)(F)(F)F)cc2)n2nc(C(C)(F)F)nc2n1`: “patients with QTcF increase” 0% (Plasmodium vivax; 12-lead ECG; malaria patients; oral, 600 mg, increase above 60 ms).
`O=C(O)CCC(=O)c1ccc(S(=O)(=O)N2CCCC2)cc1` gave a Kd of over 1000 µM (USP49 ZnF-UBD domain).
For `C[C@]12CC[C@@H]3c4ccc(O)cc4C[C@@H](CCCCCCCCC[S+]([O-])CCCC(F)(F)C(F)(F)F)[C@H]3[C@@H]1CC[C@@H]2O` (stereo partly drawn), the viability was 86.3% and 78.1% and 85.9% (T47D; CCK-8; 10 nM; relative to: untreated).
The uptake rate of `C[C@]12CCCN1CC1=NNC(=O)c3cc(F)cc4[nH]c2c1c34` is reported as 0.295 pmol/min/mg (ABCG2; substrate; membrane vesicles; 0.5 µM, together with: AMP).
For `c1csc(CNc2cc[nH]n2)c1`, “numerical aberration cells” read 0% (human peripheral blood lymphocytes; 1560 µg/mL, 4 h).
For `CC[C@H](CO)N(CCN(N=O)[C@H](CC)CO)N=O`, “revertant colonies per plate” read 31.7 ± 6 (Salmonella typhimurium; mutagenicity, Ames plate incorporation; TA98; 50 µg/plate, without S9, methanol).
Under “mean revertant colonies”, `Cc1cc(N)c2c(OCC(C)(C)C(=O)NC(C)C)cccc2n1` is recorded as 77 colonies/plate (Salmonella typhimurium; reverse mutation, plate incorporation; TA100; 1000 µg/plate, with rat liver S9).
For `COc1ccc2c3c([nH]c2c1)[C@H](CC(C)C)N1C(=O)[C@H](CC(=O)NC(C)C)NC(=O)[C@@H]1C3`, the inhibition was 98.1% and 117% and 126% and 104% (ABCG2; inhibitor, item: protoporphyrin IX; A549; 10 µM, 2 h, together with: 1 mM ALA).
Under “systolic blood pressure”, `CCN1/C(=C/C(C)=O)Sc2ccc(F)cc21` is recorded as 109 ± 9 mmHg (cynomolgus monkey; oral, 100 mg/kg, 24 h post-dose).
For `Cc1ccc(C(=O)O)cc1S(=O)(=O)Nc1cccc(C(=O)CCC(=O)O)c1`, the Kd was 187 µM (USP49 ZnF-UBD domain).
The cytotoxicity of `Cc1cc(C(=O)NC(C)(C)COc2cccc3c2C(N)=NS(=O)(=O)N3)cc(C)n1` is reported as 6% (human peripheral blood lymphocytes; CBPI, preliminary test; 60 µg/mL, 4 h; relative to: vehicle control).
`CC(C)(C(=O)N1CCOc2c(C#N)cncc2C1)C(F)F`: “subjects with adverse event” 0% (item: Vascular disorders; human; oral, 10 mg once daily, 14 days, multiple ascending dose).
`CC[C@]1(O)C[C@@H]2CN(CCc3c([nH]c4ccccc34)[C@@](C(=O)OC)(c3cc4c(cc3OC)N(C)[C@H]3[C@@](O)(C(=O)OC)[C@H](OC(C)=O)[C@]5(CC)C=CCN6CC[C@]43[C@@H]65)C2)C1` — result for “micronucleated binucleated cells”: 1% (human peripheral blood lymphocytes; in vitro micronucleus; 7.5 ng/mL, 24 h, without S9, DMSO 0.2%).
With `CC[C@]1(O)C[C@H]2CN(CCc3c([nH]c4ccccc34)[C@@](C(=O)OC)(c3cc4c(cc3OC)N(C=O)[C@H]3[C@@](O)(C(=O)OC)[C@H](OC(C)=O)[C@]5(CC)C=CCN6CC[C@]43[C@@H]65)C2)C1` the viability was 78.6% and 64.2% (CHP-212 resistant subline R2 (heterozygous USP7 V517F); cell viability; 13.72 nM).
With `CC[C@H]1[C@@H](O)[C@@H]2[C@H](CC[C@]3(C)[C@@H]([C@H](C)CCNC(=O)NS(=O)(=O)c4ccc(C(C)(C)C)cc4)CC[C@@H]23)[C@@]2(C)CC[C@@H](O)C[C@@H]12` the AUC(0-inf) was 426 ng·h/mL (Cytochrome P450 3A4 (CYP3A4, Homo sapiens, UniProt P08684); human, plasma; dose not given, mean, alone).

Excerpt of the above:
`Cc1cc(Nc2ccc(S(F)(F)(F)(F)F)cc2)n2nc(C(C)(F)F)nc2n1`: “patients with QTcF increase” 0% (Plasmodium vivax; 12-lead ECG; malaria patients; oral, 600 mg, increase above 60 ms).
